Assay results from different studies.
Every numbered part comes from another study and shows a few of its results, in no order. Substitutions count along the parent as printed.

Study 1
Target: Fragile X messenger ribonucleoprotein 1, C-terminal low-complexity region (Fmr1, Mus musculus, UniProt P35922)
Method: RNA Bind-n-Seq
Form: RNA
Matrix: in vitro
Concentration: 200 nM
Setting: whole 134-nt RNA, ends assumed
Together with: 150 mM KCl
Baseline: input library
Direction: higher = stronger binding
Measurement: log2 enrichment
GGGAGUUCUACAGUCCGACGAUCCACAGACAACACGCACCCACACAGACACAGAGGGAAGGGGUUGGGAUGGAGACAGGGUGCACAGCAGGGCGGGGUAGGACCCCAGCCCCUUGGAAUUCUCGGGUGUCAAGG: 0.912
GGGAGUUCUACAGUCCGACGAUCCUCAAGUCCUGUGCUACACAUCGUAUGUACCGAAUCGGCCGGGCCGGGGCCGGGAAAGUAUUAUGUUACGCCGUUCGGAUCUGCACUUCCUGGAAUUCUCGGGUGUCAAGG: -0.0649
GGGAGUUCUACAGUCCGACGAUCCAAGUCCUGUGCUACACAUCGUAUGUACCGAAUCGGGGAAGGGAAGGGGAAGGGGAAAGUAUUAUGUUACGCCGUUCGGAUCUGCACUUCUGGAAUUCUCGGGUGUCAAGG: 0.82
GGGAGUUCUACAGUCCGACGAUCUGGGAGGUGGAUUUUGUUUAUUUUUUUAGCUCAUUUCCAGGGGUGGGAAUUUUUUUUUAAUAUGUGUCAUGAAUAUAGUUGUUUUUGAAAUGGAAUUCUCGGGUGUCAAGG: 0.284
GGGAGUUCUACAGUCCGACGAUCUCAAGUCCUGUGCUACACAUCGUAUGUACCGAAUCGGGUGGGUUUGGGUUUGGGAAAGUAUUAUGUUACGCCGUUCGGAUCUGCACUUCCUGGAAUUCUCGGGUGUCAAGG: 1.32
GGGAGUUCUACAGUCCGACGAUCAGUCCUGUGCUACACAUCGUAUGUACCGAAUCAAACCCCCAAAUUUUUAAAUUUAAAAAAGUAUUAUGUUACGCCGUUCGGAUCUGCACUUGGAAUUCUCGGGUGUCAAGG: 0.142
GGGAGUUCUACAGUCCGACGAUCAAGUCCUGUGCUACACAUCGUAUGUACCGAAUCGGAAAAAAAGGAAAAAAAGGUGGAAAGUAUUAUGUUACGCCGUUCGGAUCUGCACUUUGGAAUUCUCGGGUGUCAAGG: -0.938
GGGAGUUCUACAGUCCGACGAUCCACAGACAACAAAAACCCACACAGACACAGAGGGAAGGGGUUGGGAUGGGGACAGGGUGCACAGCAGGGCGGGGUAGGACCCCAGCCCCUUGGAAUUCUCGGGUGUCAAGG: 1.42
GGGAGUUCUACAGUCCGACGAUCCUCAAGUCCUGUGCUACACAUCGUAUGUACCGAAUCGGAAGGGAAGGGAAGGGAAAGUAUUAUGUUACGCCGUUCGGAUCUGCACUUCCAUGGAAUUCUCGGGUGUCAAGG: 0.352

Study 2
Target: Interferon regulatory factor 5, full length, phosphomimetic (IRF5, Homo sapiens, UniProt Q13568-2, residues 1-514, K96S/S451D/S453D/S456D/S462D)
Method: protein-binding microarray
Form: double-stranded DNA, one strand shown
Matrix: in vitro
Concentration: 250 nM
Setting: 60-bp whole probe
Together with: salmon DNA 0.4 mg/ml
Baseline: random background probes
Direction: higher = stronger binding
Measurement: log fluorescence
All sequences stand within: GCCTAGCAC … GTCTTGATTCGCTTGACGCTGCTG
TTAGATATCGGGACTGGATTGGTGCTA: 1.22 z-score
TATGTTTTTCATTTTGTTCAGTGCTAG: 1.99 z-score
GACGATTTCAGTTTCGACACGTGCTAG: 7.99 z-score
GACGAACTGGGGACTGGGGACGTGCTA: -0.305 z-score
TCATATATATTATATATTACTGTGCTA: 0.965 z-score
GACGAACTGGGGACTGGAAACGTGCTA: -0.44 z-score

Study 3
Target: CCNE1, cyclin fold, Cln2 fusion (human)
Method: yeast growth competition, sequencing
Matrix: yeast
Setting: strong parent motif
Baseline: not given
Direction: higher = stronger binding
Measurement: normalised enrichment score
Starting sequence: RBL1 docking peptide (human); GSAKRRLFGEDPP
D11S: 6.17
A3T: 4.33
F8A: 0.323
P12D: 6.12
P12M: 6.27
E10P: 6.56
G1Q: 6.55
L7W: 0.614

Mixed results
PhoQ, residues 284 288 289 292 302 303 AEGLLW  fold induction (PhoP, residues 12 14 15 18 19 HEGLL (Escherichia coli, UniProt P23836); Sort-seq, measured: YFP reporter; E. coli; PhoQ-PhoP variant library, together with: 10 µM Mg2+; baseline: high Mg2+ state, higher = stronger signaling): 0.771
